Assay results collected from several papers.
Each line is one published result; not all experiments were run side by side. Numbers after ± are the reported error.
OPRM1: Mu-type opioid receptor (OPRM1, Homo sapiens, UniProt P35372)
Ricin A chain: Ricin, A chain (Ricinus communis, UniProt P02879)

Chains of the proteins cited; added tags and fusions are not shown. Residues count along the entry.
UniProt P35372, whole entry: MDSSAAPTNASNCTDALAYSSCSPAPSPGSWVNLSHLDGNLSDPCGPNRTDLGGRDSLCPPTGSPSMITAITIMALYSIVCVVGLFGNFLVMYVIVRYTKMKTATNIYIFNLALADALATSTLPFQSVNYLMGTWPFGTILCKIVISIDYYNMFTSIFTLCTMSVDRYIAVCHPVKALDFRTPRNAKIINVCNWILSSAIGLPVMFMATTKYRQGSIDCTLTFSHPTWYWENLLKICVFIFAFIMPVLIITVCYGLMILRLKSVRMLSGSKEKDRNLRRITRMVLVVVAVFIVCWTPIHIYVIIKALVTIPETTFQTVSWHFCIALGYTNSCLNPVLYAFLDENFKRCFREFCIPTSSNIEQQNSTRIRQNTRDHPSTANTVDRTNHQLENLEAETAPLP
UniProt P21836, whole entry, looked up: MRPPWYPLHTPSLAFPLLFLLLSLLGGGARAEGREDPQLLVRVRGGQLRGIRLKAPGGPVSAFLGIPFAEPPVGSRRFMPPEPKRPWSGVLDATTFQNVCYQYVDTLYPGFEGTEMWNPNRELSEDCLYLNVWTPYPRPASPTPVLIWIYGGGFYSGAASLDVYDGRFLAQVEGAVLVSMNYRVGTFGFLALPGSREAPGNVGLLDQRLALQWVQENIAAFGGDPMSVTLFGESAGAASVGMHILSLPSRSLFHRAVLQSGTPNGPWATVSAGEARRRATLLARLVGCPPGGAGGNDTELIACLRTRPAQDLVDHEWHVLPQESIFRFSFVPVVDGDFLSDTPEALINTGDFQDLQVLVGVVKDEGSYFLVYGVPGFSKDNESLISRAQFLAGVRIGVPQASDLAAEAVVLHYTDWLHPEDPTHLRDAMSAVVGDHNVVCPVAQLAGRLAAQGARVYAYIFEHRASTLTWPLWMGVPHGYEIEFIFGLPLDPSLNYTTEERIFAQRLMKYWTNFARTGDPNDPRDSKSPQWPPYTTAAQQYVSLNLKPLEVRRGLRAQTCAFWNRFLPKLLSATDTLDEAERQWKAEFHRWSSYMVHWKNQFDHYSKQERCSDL
UniProt P22303, 32-614 limits assumed: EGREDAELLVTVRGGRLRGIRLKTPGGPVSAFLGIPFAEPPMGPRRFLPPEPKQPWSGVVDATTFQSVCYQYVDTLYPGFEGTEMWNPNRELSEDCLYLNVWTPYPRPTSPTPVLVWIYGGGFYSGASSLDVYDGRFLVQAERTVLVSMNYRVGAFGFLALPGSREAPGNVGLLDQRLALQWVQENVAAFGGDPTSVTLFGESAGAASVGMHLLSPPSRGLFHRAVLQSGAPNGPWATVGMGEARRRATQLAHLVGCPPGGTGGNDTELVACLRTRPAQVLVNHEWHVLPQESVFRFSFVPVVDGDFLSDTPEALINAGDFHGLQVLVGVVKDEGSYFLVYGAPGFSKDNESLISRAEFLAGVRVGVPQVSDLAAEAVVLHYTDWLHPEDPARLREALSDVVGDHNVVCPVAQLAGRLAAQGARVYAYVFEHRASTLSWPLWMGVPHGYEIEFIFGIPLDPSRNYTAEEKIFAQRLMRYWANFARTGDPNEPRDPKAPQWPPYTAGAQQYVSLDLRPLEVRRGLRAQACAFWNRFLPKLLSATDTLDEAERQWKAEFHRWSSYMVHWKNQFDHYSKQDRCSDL
UniProt Q03311, whole entry, looked up: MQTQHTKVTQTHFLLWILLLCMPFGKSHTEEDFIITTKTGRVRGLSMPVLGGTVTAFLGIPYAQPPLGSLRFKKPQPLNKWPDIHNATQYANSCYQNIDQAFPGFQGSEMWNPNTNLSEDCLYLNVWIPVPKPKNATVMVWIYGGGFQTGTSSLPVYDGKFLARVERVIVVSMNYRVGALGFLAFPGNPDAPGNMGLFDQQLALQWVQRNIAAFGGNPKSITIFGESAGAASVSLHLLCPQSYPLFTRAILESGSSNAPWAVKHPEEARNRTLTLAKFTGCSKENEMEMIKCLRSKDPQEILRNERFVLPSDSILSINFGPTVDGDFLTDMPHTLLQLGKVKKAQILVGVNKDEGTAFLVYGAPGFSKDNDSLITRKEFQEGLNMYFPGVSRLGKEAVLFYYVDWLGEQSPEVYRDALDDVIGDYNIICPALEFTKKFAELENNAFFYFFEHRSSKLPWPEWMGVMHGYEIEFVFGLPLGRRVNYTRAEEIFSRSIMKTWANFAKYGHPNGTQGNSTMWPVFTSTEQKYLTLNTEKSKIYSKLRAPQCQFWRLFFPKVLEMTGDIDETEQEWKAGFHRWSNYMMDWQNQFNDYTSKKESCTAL
UniProt P9WKD3, 41-307 limits assumed: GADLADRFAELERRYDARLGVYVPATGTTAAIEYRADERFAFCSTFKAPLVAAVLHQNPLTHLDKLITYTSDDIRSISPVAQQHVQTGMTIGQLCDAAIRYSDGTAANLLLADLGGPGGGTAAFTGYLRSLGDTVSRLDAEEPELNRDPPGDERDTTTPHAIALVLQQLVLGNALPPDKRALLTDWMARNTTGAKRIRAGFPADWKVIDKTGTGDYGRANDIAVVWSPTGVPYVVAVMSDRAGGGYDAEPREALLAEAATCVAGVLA
UniProt Q9GZQ6, whole entry: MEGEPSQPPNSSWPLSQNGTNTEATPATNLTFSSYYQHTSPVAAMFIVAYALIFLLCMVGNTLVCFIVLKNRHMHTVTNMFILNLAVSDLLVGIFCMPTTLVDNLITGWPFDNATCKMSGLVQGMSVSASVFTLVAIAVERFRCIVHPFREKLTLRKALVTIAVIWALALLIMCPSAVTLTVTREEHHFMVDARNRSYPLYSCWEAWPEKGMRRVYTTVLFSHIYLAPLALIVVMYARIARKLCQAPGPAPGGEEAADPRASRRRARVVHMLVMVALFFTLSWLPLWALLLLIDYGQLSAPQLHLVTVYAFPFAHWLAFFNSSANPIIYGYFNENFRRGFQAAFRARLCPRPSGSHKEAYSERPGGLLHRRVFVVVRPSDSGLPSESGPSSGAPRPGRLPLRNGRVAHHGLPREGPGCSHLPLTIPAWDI
UniProt P02708, whole entry, looked up: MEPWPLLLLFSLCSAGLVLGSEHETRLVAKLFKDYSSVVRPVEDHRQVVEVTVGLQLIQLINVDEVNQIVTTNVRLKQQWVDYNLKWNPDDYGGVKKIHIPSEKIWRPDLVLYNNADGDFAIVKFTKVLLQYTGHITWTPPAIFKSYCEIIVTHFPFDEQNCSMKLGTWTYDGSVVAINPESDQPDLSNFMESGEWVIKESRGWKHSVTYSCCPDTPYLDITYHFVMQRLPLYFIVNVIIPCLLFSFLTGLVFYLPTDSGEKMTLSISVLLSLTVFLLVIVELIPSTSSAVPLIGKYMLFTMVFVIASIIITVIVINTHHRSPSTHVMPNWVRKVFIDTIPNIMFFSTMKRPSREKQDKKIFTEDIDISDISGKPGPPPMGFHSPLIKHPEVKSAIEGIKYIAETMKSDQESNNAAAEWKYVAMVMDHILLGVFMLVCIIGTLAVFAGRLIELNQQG
UniProt P11230, whole entry, looked up: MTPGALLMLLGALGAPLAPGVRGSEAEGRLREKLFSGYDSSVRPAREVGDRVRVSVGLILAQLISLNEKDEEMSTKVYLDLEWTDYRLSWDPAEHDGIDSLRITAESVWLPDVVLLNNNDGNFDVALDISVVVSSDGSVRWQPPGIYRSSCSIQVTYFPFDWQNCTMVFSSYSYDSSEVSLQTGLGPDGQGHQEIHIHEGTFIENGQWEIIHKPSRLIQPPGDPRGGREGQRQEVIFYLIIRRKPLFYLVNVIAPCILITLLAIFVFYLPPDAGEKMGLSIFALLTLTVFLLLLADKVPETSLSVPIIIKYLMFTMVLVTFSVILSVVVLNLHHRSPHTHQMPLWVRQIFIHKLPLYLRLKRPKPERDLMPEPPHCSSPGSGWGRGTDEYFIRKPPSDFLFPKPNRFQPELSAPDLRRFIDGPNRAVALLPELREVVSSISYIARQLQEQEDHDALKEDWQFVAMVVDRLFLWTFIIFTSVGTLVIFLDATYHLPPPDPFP
UniProt Q04844, whole entry, looked up: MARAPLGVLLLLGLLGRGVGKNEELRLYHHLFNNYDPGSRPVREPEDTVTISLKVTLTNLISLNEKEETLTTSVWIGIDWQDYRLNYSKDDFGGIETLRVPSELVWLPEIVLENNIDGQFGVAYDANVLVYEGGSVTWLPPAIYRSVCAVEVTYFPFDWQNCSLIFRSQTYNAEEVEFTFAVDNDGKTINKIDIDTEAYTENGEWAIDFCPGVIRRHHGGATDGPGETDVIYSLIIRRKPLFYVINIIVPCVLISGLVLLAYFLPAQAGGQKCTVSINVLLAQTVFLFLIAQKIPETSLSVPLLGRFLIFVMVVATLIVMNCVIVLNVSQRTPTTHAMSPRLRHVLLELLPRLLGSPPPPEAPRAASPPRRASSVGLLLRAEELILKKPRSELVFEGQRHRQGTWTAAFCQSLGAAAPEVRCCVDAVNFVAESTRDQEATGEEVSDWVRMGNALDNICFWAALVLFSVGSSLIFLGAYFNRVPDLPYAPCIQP
UniProt Q07001, whole entry, looked up: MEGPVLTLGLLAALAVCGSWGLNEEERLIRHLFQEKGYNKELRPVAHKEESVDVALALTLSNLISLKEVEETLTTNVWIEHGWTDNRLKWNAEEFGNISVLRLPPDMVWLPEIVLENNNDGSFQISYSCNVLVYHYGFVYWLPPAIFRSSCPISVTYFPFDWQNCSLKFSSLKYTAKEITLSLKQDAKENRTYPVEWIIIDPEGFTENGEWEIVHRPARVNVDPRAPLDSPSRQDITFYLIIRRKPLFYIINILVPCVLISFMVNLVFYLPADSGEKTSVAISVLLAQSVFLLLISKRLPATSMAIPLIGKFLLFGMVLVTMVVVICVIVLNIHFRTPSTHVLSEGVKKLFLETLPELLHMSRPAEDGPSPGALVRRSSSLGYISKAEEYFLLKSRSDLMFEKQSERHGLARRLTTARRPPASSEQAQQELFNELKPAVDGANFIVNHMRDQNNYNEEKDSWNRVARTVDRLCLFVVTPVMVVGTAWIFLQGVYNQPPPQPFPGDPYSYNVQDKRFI
UniProt P41145, whole entry: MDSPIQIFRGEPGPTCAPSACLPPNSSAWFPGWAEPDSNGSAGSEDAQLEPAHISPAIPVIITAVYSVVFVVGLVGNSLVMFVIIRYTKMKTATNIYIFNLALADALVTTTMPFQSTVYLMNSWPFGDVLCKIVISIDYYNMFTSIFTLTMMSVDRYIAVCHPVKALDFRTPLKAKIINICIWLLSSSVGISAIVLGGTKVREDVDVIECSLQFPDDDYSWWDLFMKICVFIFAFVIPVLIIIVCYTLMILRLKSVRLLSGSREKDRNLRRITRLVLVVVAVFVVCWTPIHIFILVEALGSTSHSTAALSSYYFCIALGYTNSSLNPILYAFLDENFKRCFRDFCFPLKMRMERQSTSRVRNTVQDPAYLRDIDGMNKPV
UniProt P33535, whole entry: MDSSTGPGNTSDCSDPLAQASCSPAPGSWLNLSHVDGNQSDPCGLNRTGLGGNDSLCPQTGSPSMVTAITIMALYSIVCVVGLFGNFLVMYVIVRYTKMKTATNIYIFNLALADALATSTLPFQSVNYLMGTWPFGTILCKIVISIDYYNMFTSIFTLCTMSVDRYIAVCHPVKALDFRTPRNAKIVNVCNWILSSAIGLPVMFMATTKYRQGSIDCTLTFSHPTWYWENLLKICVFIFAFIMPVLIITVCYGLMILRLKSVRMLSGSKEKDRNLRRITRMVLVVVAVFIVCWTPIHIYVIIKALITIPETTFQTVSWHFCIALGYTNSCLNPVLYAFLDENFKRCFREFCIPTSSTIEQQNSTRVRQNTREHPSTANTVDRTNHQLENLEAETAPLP
UniProt P23953, whole entry, looked up: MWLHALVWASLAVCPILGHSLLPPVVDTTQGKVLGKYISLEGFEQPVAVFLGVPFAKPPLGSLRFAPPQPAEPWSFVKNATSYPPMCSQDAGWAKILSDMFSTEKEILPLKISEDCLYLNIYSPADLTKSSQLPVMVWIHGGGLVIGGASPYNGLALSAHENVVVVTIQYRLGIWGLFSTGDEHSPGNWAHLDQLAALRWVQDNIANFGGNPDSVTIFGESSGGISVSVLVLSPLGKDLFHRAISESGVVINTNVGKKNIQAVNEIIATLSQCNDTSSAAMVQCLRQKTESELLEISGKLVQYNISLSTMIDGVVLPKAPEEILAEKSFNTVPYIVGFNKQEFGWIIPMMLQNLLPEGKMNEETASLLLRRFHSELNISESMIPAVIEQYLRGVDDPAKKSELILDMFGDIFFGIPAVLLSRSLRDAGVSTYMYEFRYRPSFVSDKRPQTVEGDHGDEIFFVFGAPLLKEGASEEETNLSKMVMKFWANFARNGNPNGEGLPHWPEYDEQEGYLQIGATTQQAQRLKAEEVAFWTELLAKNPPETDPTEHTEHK

Structure (SMILES)	tested on	assay	test system	conditions	how to read	quantity	result
O=C1Cc2ccccc2N1C1CCN([C@H]2CC[C@@H]3CCCc4cccc2c43)CC1 (relative stereo)	OPRM1	agonist	cell membranes			EC50	0.409 ± 0.219 µM
CCOP(=S)(OCC)Oc1cc(C)nc(C(C)C)n1	Acetylcholinesterase (Ache, Mus musculus, UniProt P21836)		ES1+/+ mice, plasma	subcutaneous, 50.0 mg/kg, 2.0 h, toxicant challenge		inhibition	88%
CC(C)OP(=S)(OC(C)C)SCCNS(=O)(=O)c1ccccc1	Acetylcholinesterase (ACHE, Homo sapiens, UniProt P22303)	enzyme activity, inhibitor, colorimetric		no microsomes		IC50	inactive
C=C(C)[C@H]1CCC(C)=C[C@@H]1c1c(O)cc(CC)cc1O	OPRM1	cAMP inhibition reversal, antagonist		together with: fentanyl	baseline: compound IC50 over cannabidiol IC50	IC50 ratio	~3.6
CCOP(=O)(OCC)Oc1ccc([N+](=O)[O-])cc1	Cholinesterase (Bche, Mus musculus, UniProt Q03311)		ES1-/- mice, plasma	subcutaneous, 0.2 mg/kg, 0.5 h, toxicant challenge		inhibition	61 ± 5.5%
O=C(O)C1=CS[C@@H]2/C(=C\c3cc4n(n3)CSCC4)C(=O)N12	blaC (Mycobacterium tuberculosis, UniProt P9WKD3)	inactivation, nitrocefin inactivation kinetics				KI	0.2 µM
NC12CC3CC(CC(C3)C1)C2	Influenza A virus	viral replication, plaque size reduction	MDCK, A/Swine/Iowa/13-0505/2010 (H3N2)			EC50	< 1 µM
COc1c(C)c2c(c(O)c1C/C=C(\C)CCC(=O)O)C(=O)OC2	Inosine-5'-monophosphate dehydrogenase (guaB, Bacillus anthracis, UniProt A0A6L8P2U9)	inhibitor		together with: NAD+ varied, 750 µM IMP		Kii	3.9 ± 0.2 µM
O=C(CCc1ccc(O)cc1)N[C@@H](COC(=O)c1ccccc1)C(=O)NC1CCCCC1	Replicase polyprotein 1ab, 3C-like proteinase (rep, Severe acute respiratory syndrome-related coronavirus, UniProt P0C6X7, R3428I)	inhibitor		concentration not given		enzyme activity	inactive
NC(=O)c1cnc2c(=O)[nH]c(N)nc2n1	Ricin A chain	differential scanning fluorimetry		500 µM, pH 7.5, 2 µM protein		ΔTm	1 °C
COc1cc(NC2(CNC(=O)CNC(=N)N)CCN(Cc3ccccc3)CC2)cc(OC)c1	Neuropeptide FF receptor 1 (NPFFR1, Homo sapiens, UniProt Q9GZQ6)				baseline: mu and kappa opioid over NPFF1	selectivity ratio	7 to 43 fold
CC[C@H](C)[C@@H]1NC(=O)[C@H](CC(N)=O)NC(=O)[C@H](Cc2ccc(O)cc2)NC(=O)[C@H]([C@@H](C)O)NC(=O)[C@@H]2CSSC[C@@H]3NC(=O)[C@H](CC(N)=O)NC(=O)[C@H](Cc4ccc(O)cc4)NC(=O)[C@H](C(C)C)NC(=O)CNC(=O)[C@H]([C@@H](C)O)NC(=O)CNC(=O)[C@H](CCCCN)NC(=O)[C@@H]4CSSC[C@H](NC(=O)[C@H](CO)NC(=O)[C@H](CC(C(=O)O)C(=O)O)NC(=O)CNC3=O)C(=O)N[C@@H](CO)C(=O)N[C@H]3CSSC[C@H](NC(=O)CNC(=O)[C@H](CO)NC(=O)[C@H](CCCCN)NC(=O)[C@H](CCSC)NC(=O)[C@H](CO)NC(=O)CNC1=O)C(=O)N[C@@H](C)C(=O)N[C@@H](CSSC[C@H](NC(=O)[C@H](CO)NC(=O)[C@H](Cc1c[nH]cn1)NC(=O)[C@H](CC(C)C)NC(=O)CNC(=O)[C@H](CC(C(=O)O)C(=O)O)NC3=O)C(=O)N[C@@H](CCCNC(=N)N)C(=O)N2)C(=O)N[C@@H]([C@@H](C)CC)C(=O)N[C@H](C(=O)N[C@H](C(=O)N[C@@H](Cc1ccc(O)cc1)C(=O)N[C@@H](Cc1ccc(O)cc1)C(=O)O)[C@@H](C)O)CSSC[C@H](NC(=O)[C@@H](N)CCCCN)C(=O)N[C@@H](CC(N)=O)C(=O)N[C@@H](Cc1ccccc1)C(=O)N[C@@H](CC(=O)O)C(=O)N[C@@H](CCCCN)C(=O)N4	Nicotinic acetylcholine receptor alpha-1/beta-1/delta/epsilon (Homo sapiens, UniProt P02708+P11230+Q04844+Q07001)	ion current, antagonist	Xenopus oocytes			Hill slope	0.71
CCC1C(=O)N(C2CCN(Cc3cccc4[nH]ccc34)CC2)c2ccccc21 (centres unmarked)	OPRM1	agonist	cell membranes			EC50	0.0234 ± 0.0056 µM
CO[C@]12CC[C@@]3(C[C@@H]1[C@](C)(O)c1cccs1)[C@H]1Cc4ccc(O)c5c4[C@@]3(CCN1CC1CC1)[C@H]2O5	Kappa-type opioid receptor (OPRK1, Homo sapiens, UniProt P41145)	G-protein activation, agonist		10 µM	baseline: U-69593	stimulation	30 ± 6%
O=CN1CC[C@]23c4c5ccc(O)c4O[C@H]2[C@@H](O)C=C[C@H]3[C@H]1C5	Mu-type opioid receptor (Oprm1, Rattus norvegicus, UniProt P33535)				baseline: morphine	affinity decrease	290 fold
CNC(=O)Oc1cccc2c1OC(C)(C)C2	Ces1c (Mus musculus, UniProt P23953)	alpha-naphthyl acetate hydrolysis	ES1+/+ mice, plasma	subcutaneous, 1.0 mg/kg, 0.5 h, toxicant challenge		inhibition	94%
CCC(=O)c1cnc2c(=O)[nH]c(N)nc2n1	Ricin A chain	differential scanning fluorimetry		500 µM, pH 7.5, 2 µM protein		ΔTm	2 °C
